Assay results collected from several papers.
Each numbered part is a random draw from the data of one study; scales do not carry over between parts.
Sequence of UniProt Q05940 (whole entry, looked up): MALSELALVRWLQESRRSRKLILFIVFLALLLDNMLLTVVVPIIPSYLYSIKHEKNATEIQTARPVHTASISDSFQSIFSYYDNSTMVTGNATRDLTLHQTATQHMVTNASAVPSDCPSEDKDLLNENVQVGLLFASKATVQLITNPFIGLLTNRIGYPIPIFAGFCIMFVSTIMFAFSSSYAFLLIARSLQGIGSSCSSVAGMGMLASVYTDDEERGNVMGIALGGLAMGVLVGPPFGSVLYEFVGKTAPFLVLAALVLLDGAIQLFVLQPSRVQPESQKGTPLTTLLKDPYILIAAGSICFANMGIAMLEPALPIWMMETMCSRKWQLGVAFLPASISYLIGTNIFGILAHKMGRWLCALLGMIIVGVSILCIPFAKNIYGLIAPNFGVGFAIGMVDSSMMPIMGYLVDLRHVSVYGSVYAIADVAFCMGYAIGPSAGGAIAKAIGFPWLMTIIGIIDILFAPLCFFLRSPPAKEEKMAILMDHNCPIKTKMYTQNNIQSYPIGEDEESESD

Set 1
Target: POU domain, class 5, transcription factor 1, POU domain (Pou5f1, Mus musculus, UniProt P20263, residues 131-289)
Sequence of UniProt P20263 (131-289, looked up): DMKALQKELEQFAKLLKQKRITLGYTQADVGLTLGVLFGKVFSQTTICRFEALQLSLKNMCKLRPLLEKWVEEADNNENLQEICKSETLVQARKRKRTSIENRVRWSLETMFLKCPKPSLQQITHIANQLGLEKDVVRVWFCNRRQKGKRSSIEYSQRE
Method: Spec-seq
Form: double-stranded DNA, one strand shown
Medium: in vitro
Concentration: not given
Notes: whole probe, mean of replicates
Relative to: not given
Direction: lower = stronger binding
All sequences stand within: GAGTCGTCTCGTCAGCAC … CCGTAGAGCACTCAGGTC
| Strand | relative binding energy [ln ratio] |
| --- | --- |
| ATGCAGTG | 0.58 |
| TACATAAT | -0.671 |
| ATGCTTCG | 0.585 |
| ATTAGTAT | -0.142 |
| ATGACTAT | 0.105 |
| ATACCGAT | 0.564 |
| ATATCAAT | -0.0717 |
| ATGCCGGT | 0.833 |

Set 2
Target: Centromere-binding protein 1, full length, N-terminal tag (CBF1, Saccharomyces cerevisiae, UniProt P17106, residues 1-351)
Sequence of UniProt P17106 (whole entry, looked up): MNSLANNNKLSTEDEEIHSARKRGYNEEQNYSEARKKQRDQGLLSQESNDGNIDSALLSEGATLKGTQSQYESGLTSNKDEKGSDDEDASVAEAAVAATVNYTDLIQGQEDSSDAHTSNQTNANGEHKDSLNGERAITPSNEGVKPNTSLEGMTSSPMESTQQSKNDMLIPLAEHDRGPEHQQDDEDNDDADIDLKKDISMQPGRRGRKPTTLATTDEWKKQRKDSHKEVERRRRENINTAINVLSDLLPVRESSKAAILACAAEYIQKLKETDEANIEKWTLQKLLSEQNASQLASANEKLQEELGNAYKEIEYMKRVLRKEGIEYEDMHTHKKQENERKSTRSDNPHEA
Method: protein-binding microarray
Form: double-stranded DNA, one strand shown
Medium: in vitro
Concentration: 0.8 µM
Notes: whole 60-bp probe, no competitor
Direction: higher = stronger binding
All sequences stand within: … GTCTTGATTCGCTTGACGCTGCTG
| Strand | fluorescence intensity [a.u.] |
| --- | --- |
| GAATTTTTTTGCAGTCATGTGAATTTTCCGACTTAG | 2170 |
| CTAACGTGTTAAAATGACATCAGGTATCAATGCTTC | 502 |
| GAACAAGCTAGAGATCACAAGCTAAAAAAGAACTAG | 693 |
| CTAAACATAGAAGACCGCGTGATTCATTTTAGTTTC | 1360 |
| CTAGCAGATCCACGCCACGCCATCTCACTTACGTTC | 513 |
| GAAGTCAGCCGTTTCCACGTGACGGGAAAAGTGTAG | 9470 |
| CTAAAACATATAAATAGCGTGCATATTCTTCTCTTC | 547 |
| GAATTCCTAGACATTCTCGTGGTCTTTTCTTTGTAG | 576 |

Set 3
Target: Ras GTPase-activating protein-binding protein 1, full length (G3BP1, Homo sapiens, UniProt Q13283)
Sequence of UniProt Q13283 (whole entry, looked up): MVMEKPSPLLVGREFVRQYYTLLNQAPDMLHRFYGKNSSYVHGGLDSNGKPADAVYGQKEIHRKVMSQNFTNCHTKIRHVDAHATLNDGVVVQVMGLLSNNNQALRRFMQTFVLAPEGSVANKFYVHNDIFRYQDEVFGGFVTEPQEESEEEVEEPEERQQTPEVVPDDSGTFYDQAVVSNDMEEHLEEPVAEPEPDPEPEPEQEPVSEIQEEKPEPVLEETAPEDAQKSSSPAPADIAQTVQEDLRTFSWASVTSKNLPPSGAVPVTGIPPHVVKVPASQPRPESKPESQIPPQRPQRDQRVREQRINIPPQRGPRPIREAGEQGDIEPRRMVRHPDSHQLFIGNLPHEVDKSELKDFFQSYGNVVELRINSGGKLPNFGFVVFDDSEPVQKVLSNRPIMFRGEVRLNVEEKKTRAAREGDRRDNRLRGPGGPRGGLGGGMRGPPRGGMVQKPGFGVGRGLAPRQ
Method: RNA Bind-n-Seq
Form: RNA
Medium: in vitro
Concentration: 200 nM
Notes: whole 134-nt RNA, ends assumed
With: 150 mM LiCl
Relative to: input library
Direction: higher = stronger binding
All molecules: 7-deaza-guanosine replaces G
All sequences stand within: GGGAGUUCUACAGUCCGACGAUC … UGGAAUUCUCGGGUGUCAAGG
| Strand | log2 enrichment |
| --- | --- |
| UUACUACCUCCGCCUUCAUUUCCGUCAGCAAUCCCGGCGCGGGCUCCCCGGCCCCCGCCAGCCCGCCUCCCCUCGCUGUGCCCGGGACCG | 1.64 |
| UCCUGUGCUACACAUCGUAUGUACCGAAUCGGGCCCCCCGGGGCCCCCCGGCCCCCCGGGAAAGUAUUAUGUUACGCCGUUCGGAUCUGC | -2.07 |
| CAAGUCCUGUGCUACACAUCGUAUGUACCGAAUCGGAAAAGGGAAAAGGGAAAAGGAAAGUAUUAUGUUACGCCGUUCGGAUCUGCACUU | -1.08 |
| AGAGAAAAGGAACAGUUCCGUAAGCUCUUUAUUGGUGGCUUAAGCUUUGAAACCACAGAAGAAAGUUUGAGGAACUACUACGAACAAUGG | -2.93 |
| UGGCCCUGGUGGCAUGCGGGGAGGAAGAGGUGGCCUCAUGGAUCGUGGUGGUCCCGGUGGAAUGUUCAGGGGUGGCCGUGGUGGAGACAG | 0.0686 |
| ACCAUGCAGGUGGGCAUCUUUGGGAAGUGGGGCAAGGGGGGGAUAGGGACGGGGGUAACACUUUGGGAACAGGUGGUCCCAGGUCGUUUC | 0.21 |
| UGGGAGGUGGAUUUUGCUUAUUUUUUUAGCUCAUUUCCAGGGGUGGGAAUUUUUUUUUAAUAUGUGUCAUGAAUAAAGUUGUUUUUGAAA | -0.397 |
| CAAGUCCUGUGCUACACAUCGUAUGUACCGAAUCGGAAAGGAAAAAGGAAAAAGGAAAGUAUUAUGUUACGCCGUUCGGAUCUGCACUUC | -0.59 |

Further values, each from its own experiment
| Compound | target | test | conditions | measurement | value |
| --- | --- | --- | --- | --- | --- |
| Nc1nc2[nH]cc(CCc3ccc(C(=O)N[C@@H](CCC(=O)O)C(=O)O)cc3)c2c(=O)[nH]1 | Synaptic vesicular amine transporter (SLC18A2, Homo sapiens, UniProt Q05940) | inhibitor | literature data | IC50 | > 10 µM |

Repeated from above (set 3):
| Strand | log2 enrichment |
| --- | --- |
| UCCUGUGCUACACAUCGUAUGUACCGAAUCGGGCCCCCCGGGGCCCCCCGGCCCCCCGGGAAAGUAUUAUGUUACGCCGUUCGGAUCUGC | -2.07 |
| CAAGUCCUGUGCUACACAUCGUAUGUACCGAAUCGGAAAAGGGAAAAGGGAAAAGGAAAGUAUUAUGUUACGCCGUUCGGAUCUGCACUU | -1.08 |
